{"data": "Assay results of several laboratories", "method": "steady-state kinetics", "B1": "CMBL (Homo sapiens, UniProt Q96DG6); chain MANEAYPCPCDIGHRLEYGGLGREVQVEHIKAYVTKSPVDAGKAVIVIQDIFGWQLPNTRYIADMISGNGYTTIVPDFFVGQEPWDPSGDWSIFPEWLKTRNAQKIDREISAILKYLKQQCHAQKIGIVGFCWGGTAVHHLMMKYSEFRAGVSVYGIVKDSEDIYNLKNPTLFIFAENDVVIPLKDVSLLTQKLKEHCKVEYQIKTFSGQTHGFVHRKREDCSPADKPYIDEARRNLIEWLNKYM", "B2": "PTR1 (Leishmania major, UniProt Q01782); chain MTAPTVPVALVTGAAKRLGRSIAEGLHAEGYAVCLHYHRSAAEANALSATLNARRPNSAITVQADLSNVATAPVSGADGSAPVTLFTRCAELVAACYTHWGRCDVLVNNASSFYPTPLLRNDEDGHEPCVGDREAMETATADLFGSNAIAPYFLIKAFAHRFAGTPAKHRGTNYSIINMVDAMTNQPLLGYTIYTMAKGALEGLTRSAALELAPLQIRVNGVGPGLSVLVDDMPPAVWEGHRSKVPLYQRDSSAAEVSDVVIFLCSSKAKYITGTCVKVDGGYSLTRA", "B3": "PUT1 del N-terminal 18 (Saccharomyces cerevisiae, UniProt P09368); chain CFPLIKRSYVSKTPTHSNTAANLMVETPAANANGNSVMAPPNSINFLQTLPKKELFQLGFIGIATLNSFFLNTIIKLFPYIPIPVIKFFVSSLYCGGENFKEVIECGKRLQKRGISNMMLSLTIENSEGTKSLSSTPVDQIVKETISSVHNILLPNIIGQLESKPINDIAPGYIALKPSALVDNPHEVLYNFSNPAYKAQRDQLIENCSKITKEIFELNQSLLKKYPERKAPFMVSTIDAEKYDLQENGVYELQRILFQKFNPTSSKLISCVGTWQLYLRDSGDHILHELKLAQENGYKLGLKLVRGAYIHSEKNRNQIIFGDKTGTDENYDRIITQVVNDLIINGEDSYFGHLVVASHNYQSQMLVTNLLKSTQDNSYAKSNIVLGQLLGMADNVTYDLITNHGAKNIIKYVPWGPPLETKDYLLRRLQENGDAVRSDNGWPLIKAIAKSIPKRVGL", "B4": "enzyme (Vitis vinifera, UniProt F6H697); chain MAVDPILSSPLGPAASEKDAKALQFIEEMTRNADSVQERVLAEILSRNGETEYLKRFKLEGSTVRETFKSKIPVIKYEDLQPEIQRIANGDRSAILSAHPISEFLTSSGTSAGERKLMPTIQEELDRRQMLYSLLMPVMNLYVPGLDKGKGLYFLFVKSETRTPGGLLARPVLTSYYKSEHFKTRPYDPYNVYTSPNEAILCADSFQSMYTQMLCGIYERKQVLRLGAVFASGLLRAIRFLQLNWHQLTHDIRTGTLSPKITDPSVRNCVAGVLKPDPELADLVAGECSKDNWEGIITRIWPNTKYLDVIVTGAMAQYIPTLDYYSGGLPLACTMYASSECYFGLNLNPMSKPSEVSYTIMPNMAYFEFLPHEHSSIPLSRDSPPRLVDLAHVEVGKEYELVITTYAGLYRYRVGDILRVTGFHNSAPQFHFVRRKNVLLSIDSDKTDEAELQKAVDNASKLLREVNTSVVEYTSFADTKTIPGHYVIYWELLVKDSANSPSDELLGQCCLAMEESLNSVYRQGRVADNSIGPLEIRVVKSGTFEELMDYAISRGASINQYKVPRCVNFTPIMELLDSRVVSSHFSPALPHWTPARRR", "B5": "Nudt8 (Mus musculus, UniProt Q9CR24); chain MLPDGLSAEDEQRCRQLLARTTARLRSRPAAAAVLVPLCLVRGVPALLYTLRSSRLVGRHKGEVSFPGGKCDPDDQDVIHTALRETQEELGLEVPKEHVWGVLQPVYDREKATIVPVLANVGPLDLQSLRPNLEEVDEVFEMSLAHLLQTQNQGYTHFCQGGHFSYTLPVFLHGPHRVWGLTAVITELTLKLLAPGFYQPSLAVPELPRG", "B6": "WlbA (Thermus thermophilus, UniProt Q72KX8); chain MTRFALTGLAGYIAPRHLKAIKEVGGVLVASLDPATNVGLVDSFFPEAEFFTEPEAFEAYLEDLRDRGEGVDYLSIASPNHLHYPQIRMALRLGANALSEKPLVLWPEEIARLKELEARTGRRVYTVLQLRVHPSLLALKERLGQEKGAKDVVLTYVTGRGKWYGKSWKVDEAKSGGLATNIGIHFFDLLAWLFGRALHVEVHARTPTVNAGYLELEGARVRWFLSIDPSFVPEPLRRQGKRTYRSIAVDGEEVEFSEGFTDLHTEVYRKTLAGEGFGLDEAAEAIRVAALLRTLPLSQPSPENRHPFLG", "note": "Compare with care: the assays were run in different laboratories.", "chain of UniProt P19337 (whole entry, looked up)": "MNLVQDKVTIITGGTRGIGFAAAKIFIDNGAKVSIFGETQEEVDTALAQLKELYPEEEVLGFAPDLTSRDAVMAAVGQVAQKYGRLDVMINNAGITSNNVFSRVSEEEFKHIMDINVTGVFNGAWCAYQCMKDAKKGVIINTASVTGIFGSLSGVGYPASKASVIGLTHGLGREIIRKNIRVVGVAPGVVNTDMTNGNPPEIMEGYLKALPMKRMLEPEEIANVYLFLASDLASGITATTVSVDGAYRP", "chain of UniProt Q9K499 (whole entry, looked up)": "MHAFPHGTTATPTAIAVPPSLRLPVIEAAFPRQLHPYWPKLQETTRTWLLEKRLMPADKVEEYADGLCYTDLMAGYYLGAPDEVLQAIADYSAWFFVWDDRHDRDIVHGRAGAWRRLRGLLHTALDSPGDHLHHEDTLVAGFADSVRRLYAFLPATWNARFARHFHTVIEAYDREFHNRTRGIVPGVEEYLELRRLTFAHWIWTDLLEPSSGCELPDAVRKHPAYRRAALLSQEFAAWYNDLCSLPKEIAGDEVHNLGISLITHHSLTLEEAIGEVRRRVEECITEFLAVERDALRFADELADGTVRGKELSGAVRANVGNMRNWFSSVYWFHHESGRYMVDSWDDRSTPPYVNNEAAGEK", "chain of UniProt Q29437 (whole entry, looked up)": "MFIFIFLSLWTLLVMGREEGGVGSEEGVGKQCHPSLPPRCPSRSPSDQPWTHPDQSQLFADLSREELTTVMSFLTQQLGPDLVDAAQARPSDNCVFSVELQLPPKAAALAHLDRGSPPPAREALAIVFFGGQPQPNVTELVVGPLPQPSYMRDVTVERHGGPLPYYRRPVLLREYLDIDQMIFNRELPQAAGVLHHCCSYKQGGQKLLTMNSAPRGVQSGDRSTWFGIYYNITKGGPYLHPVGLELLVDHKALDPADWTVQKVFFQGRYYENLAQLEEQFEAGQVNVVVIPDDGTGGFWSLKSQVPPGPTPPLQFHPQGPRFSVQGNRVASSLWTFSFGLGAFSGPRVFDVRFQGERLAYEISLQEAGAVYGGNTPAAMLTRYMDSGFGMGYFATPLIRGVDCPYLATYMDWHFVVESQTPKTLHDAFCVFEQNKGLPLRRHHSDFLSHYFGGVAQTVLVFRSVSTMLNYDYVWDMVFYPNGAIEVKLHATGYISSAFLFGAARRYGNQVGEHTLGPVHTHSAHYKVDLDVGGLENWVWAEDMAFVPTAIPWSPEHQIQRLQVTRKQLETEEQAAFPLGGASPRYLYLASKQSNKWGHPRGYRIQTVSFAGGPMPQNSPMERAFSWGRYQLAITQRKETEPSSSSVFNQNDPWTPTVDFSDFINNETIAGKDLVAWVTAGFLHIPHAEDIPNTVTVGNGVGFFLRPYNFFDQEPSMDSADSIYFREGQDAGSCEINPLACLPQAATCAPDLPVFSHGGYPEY"}
{"Substance": "BaiA2 (Clostridium scindens, UniProt P19337)", "substrate": "C[C@H](CCC(=O)SCCNC(=O)CCNC(=O)[C@H](O)C(C)(C)COP(=O)(O)OP(=O)(O)OC[C@H]1O[C@@H](n2cnc3c(N)ncnc32)[C@H](O)[C@@H]1OP(=O)(O)O)[C@H]1CC[C@H]2[C@@H]3[C@H](O)C[C@@H]4CC(=O)CC[C@]4(C)[C@H]3CC[C@]12C", "pH": "pH 8.7", "temperature": "37 °C", "added": "NADH", "Km": "1.1 µM"}
{"Substance": "POLH (Homo sapiens, UniProt Q9Y253)", "substrate": "Cc1cn([C@H]2C[C@H](O)[C@@H](COP(=O)(O)OP(=O)(O)OP(=O)(O)O)O2)c(=O)[nH]c1=O", "pH": "pH 8", "temperature": "37 °C", "setting": "misinsertion opposite dT", "added": "Mg2+", "Km": "77.8 µM"}
{"Substance": "B1 (CMBL)", "substrate": "CCCc1nc(C(C)(C)O)c(C(=O)OCc2oc(=O)oc2C)n1Cc1ccc(-c2ccccc2-c2nnn[nH]2)cc1", "matrix": "lysate", "pH": "pH 7.4", "temperature": "37 °C", "setting": "not purified", "Km": "170 µM"}
{"Substance": "B2 (PTR1)", "substrate": "C[C@H](O)[C@H](O)C1=Nc2c(nc(N)[nH]c2=O)NC1", "pH": "pH 7.4", "temperature": "25 °C", "setting": "apparent", "Km": "3.32 µM"}
{"Substance": "B3 (PUT1 del N-terminal 18)", "substrate": "COC1=C(OC)C(=O)C(CC=C(C)C)=C(C)C1=O", "pH": "pH 8", "temperature": "25 °C", "setting": "ping-pong", "added": "proline 300 mM, electron acceptor", "Km": "33 µM"}
{"Substance": "B4 (enzyme)", "substrate": "O=C(O)Cc1c[nH]c2ccccc12", "pH": "pH 8.6", "temperature": "25 °C", "Km": "10.4 µM"}
{"Substance": "alanine aminopeptidase (Neisseria meningitidis, UniProt Q9JYV4)", "substrate": "N=C(N)NCCC[C@H](N)C(=O)Nc1ccc2c(CC(N)=O)cc(=O)oc2c1", "pH": "pH 7.5", "temperature": "37 °C", "Km": "64.1 µM"}
{"Substance": "Plasma amine oxidase (Bos taurus, UniProt Q29437)", "substrate": "C[N+](C)(C)CCOc1ccc2cc(CN)ccc2c1", "pH": "pH 7.2", "temperature": "30 °C", "Km": "0.183 µM"}
{"Substance": "butyrylcholinesterase (Sus scrofa, UniProt A0A4X1VEU5)", "substrate": "CC(=O)SCC[N+](C)(C)C", "pH": "pH 8", "temperature": "22 °C", "Km": "370 µM"}
{"Substance": "B5 (Nudt8)", "substrate": "CC(=O)SCCNC(=O)CCNC(=O)[C@H](O)C(C)(C)COP(=O)(O)OP(=O)(O)OC[C@H]1O[C@@H](n2cnc3c(N)ncnc32)[C@H](O)[C@@H]1OP(=O)(O)O", "pH": "pH 8.5", "added": "2 mM Mn2+", "Km": "707 µM"}
{"Substance": "B6 (WlbA)", "substrate": "O=C(O)CCC(=O)C(=O)O", "pH": "pH 8.5", "temperature": "25 °C", "added": "enzyme-bound NAD(H)", "Km": "2350 µM"}
{"Substance": "protein (Carthamus tinctorius, UniProt A0A7S8BII6)", "substrate": "O=c1c(O)c(-c2ccc(O)cc2)oc2cc(O)cc(O)c12", "pH": "pH 8", "temperature": "40 °C", "setting": "no added metal", "added": "UDP-glucose 0.8 mmol/L", "Km": "39.1 µM"}
{"Substance": "cyc1 (Streptomyces coelicolor, UniProt Q9K499)", "substrate": "CC(C)=CCC/C(C)=C/CC/C(C)=C/CO[P@@](=O)(O)OP(=O)(O)O", "pH": "pH 6.5", "temperature": "30 °C", "added": "MgCl2 10 mM", "Km": "0.33 µM"}
{"note": "For quick reference, copied from above:"}
{"Substance": "alanine aminopeptidase (Neisseria meningitidis, UniProt Q9JYV4)", "substrate": "N=C(N)NCCC[C@H](N)C(=O)Nc1ccc2c(CC(N)=O)cc(=O)oc2c1", "pH": "pH 7.5", "temperature": "37 °C", "Km": "64.1 µM"}
